Experimental data collected from several papers.
Parts stem from different laboratories: compare values within a part only. Positions count from the first letter of the parent shown.

Study 1
Target: RNA binding protein fox-1 homolog 2, RRM domain, GST-SBP tag (RBFOX2, Homo sapiens, UniProt O43251-10, residues 100-194)
Technique: RNA Bind-n-Seq
Form: RNA
Medium: in vitro
Tested at: 365 nM
Setting: natural RNA segment, single round, ends assumed
Baseline: no-protein control
Reading: higher = stronger binding
Construct (chain): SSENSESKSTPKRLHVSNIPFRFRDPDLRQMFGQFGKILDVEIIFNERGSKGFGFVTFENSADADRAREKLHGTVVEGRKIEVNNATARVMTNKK
| Oligonucleotide | RBNS enrichment (R) |
| --- | --- |
| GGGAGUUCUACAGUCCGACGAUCGCCUGUCACUCCCUGUAUUUCUCCCUCCAUCCAGAGCUCGCUCCACACUCCUGCUCACCCAGCAAGUGCAGCCUCUGGCCCUCCUCUGCUUUUUCACUCCAUCCAGCUUAUGGAAUUCUCGGGUGCCAA | 0.86 |
| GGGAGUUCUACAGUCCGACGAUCUCAAGAAGUAAGAGCUAAGUUCUAAGUUCAUGUUUGUAAAUUAAUACUUCAUUUGGUGCUGGUCUAUUUUGAUUUUGGGGGGUAAUCAGCAUUAUUCUUCAGAAGGGGACUGGAAUUCUCGGGUGCCAA | 0.594 |
| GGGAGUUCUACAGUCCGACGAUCUGCCUCCUAACUUUUAUAGUUAUUUUGUUUUAUAUUUCUAAAUUCUUGUAUCAGAUCCAAAGCUCUAUUGUACAGCAAAUUAUUCUUCAAAAUGAUUAUAACCAGUUGCAUGGAAUUCUCGGGUGCCAA | 8.2 |
| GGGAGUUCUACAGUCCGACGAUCAUUACAACAAAUGGGAGGUUCUGACAUCCUAGACCAUCUCACUGAUGCGCCACCAGGAAUCCAGUCUUGUCAUUACAUAAAUAAUCUAAAUGACACUCAGAGAGGGACAGUGGAAUUCUCGGGUGCCAA | 0.251 |
| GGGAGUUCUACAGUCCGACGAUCAGAAACACAACUGUUAUCUUGACAGAGGAAGAGAGGAAUCCAAGAAAAAUGCAUGUGGAGAAUUAAACCCAAGUGUUUCGAAUUCAGCACACCCCCUCUCUGUCCUCAGAUGGAAUUCUCGGGUGCCAA | 7.75 |
| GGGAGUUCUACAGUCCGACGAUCAAGACCCCAUGUCAAAAUUAUAUAUAUAUAUAUAAUGUAUAUAUAUACAAUAUGCUGGACAUGUGACUCAUGGCUAGAGAAUGUGUCUAGCAUGAUCGGGGACUAAGUUCUGGAAUUCUCGGGUGCCAA | 1.32 |
| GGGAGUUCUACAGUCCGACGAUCAAUUGGCAGGCUUUAGCCUACAAAUGGGUCCCCCAAGUUUUCUAGAUAACAUCCUGCUCUCUGCAGGUUGCGGCAGUGUGGGUUUGGCUCCAGUCCUUCCCAUUAUACUUUGGAAUUCUCGGGUGCCAA | 0.247 |
| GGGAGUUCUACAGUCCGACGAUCUUGUGGUUUAUUGAAUGUGAUUUUUCUGCACUAAUAUAAAUUAGACUAAGUGUUUUCAAAUAAAUCUAAAUCUUCAGCAUGAUGUGUUGUGUAUAAUUGGAGUAGAUAUUUGGAAUUCUCGGGUGCCAA | 9.89 |

Study 2
Target: CCNE1, cyclin fold, Cln2 fusion (human)
Technique: yeast growth competition, sequencing
Medium: yeast
Setting: strong parent motif
Baseline: not given
Reading: higher = stronger binding
Starting sequence: SCAPER docking peptide (human); SNARRSLNFGGST
| Variant | normalised enrichment score |
| --- | --- |
| KNARRSLNFGGST [S1K] | 0.827 |
| SNARRSLNFGGSS [T13S] | 1.39 |
| SNAARSLNFGGST [R4A] | 0.276 |
| SNARRSLNFGGFT [S12F] | 1.24 |
| SNARRSLNFGGQT [S12Q] | 0.504 |
| SNARISLNFGGST [R5I] | 0.871 |
| SNARRSLNLGGST [F9L] | 0.291 |
| SNSRRSLNFGGST [A3S] | -0.192 |
| SNARRSLFFGGST [N8F] | 1.09 |
| SNARRSLNTGGST [F9T] | 0.0276 |
| SNARNSLNFGGST [R5N] | -0.76 |
| SNARRPLNFGGST [S6P] | 0.907 |
| SNARRSLNFGSST [G11S] | 0.742 |
| YNARRSLNFGGST [S1Y] | 1.4 |
| SDARRSLNFGGST [N2D] | 0.818 |
| SNARRSLNKGGST [F9K] | -0.218 |

Study 3
Target: RING finger protein unkempt homolog, zinc fingers 1-6, GST-SBP tag (UNK, Homo sapiens, UniProt Q9C0B0, residues 30-357)
Sequence of UniProt Q9C0B0 (30-357, looked up): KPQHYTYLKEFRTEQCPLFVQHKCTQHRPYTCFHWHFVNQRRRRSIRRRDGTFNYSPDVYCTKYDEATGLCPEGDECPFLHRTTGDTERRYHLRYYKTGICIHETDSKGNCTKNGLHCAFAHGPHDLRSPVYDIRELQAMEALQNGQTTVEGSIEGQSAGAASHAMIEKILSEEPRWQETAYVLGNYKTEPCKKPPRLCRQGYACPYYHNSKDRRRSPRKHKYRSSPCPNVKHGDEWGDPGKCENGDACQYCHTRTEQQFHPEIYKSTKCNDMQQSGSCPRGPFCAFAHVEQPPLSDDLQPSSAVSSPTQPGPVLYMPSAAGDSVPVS
Technique: RNA Bind-n-Seq
Form: RNA
Medium: in vitro
Tested at: not given
Setting: RNA with constant flanks, human-mouse chimeric sites, ends assumed
Baseline: input RNA pool
Reading: higher = stronger binding
| Oligonucleotide | bound/input enrichment |
| --- | --- |
| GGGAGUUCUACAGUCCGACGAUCAUUGUUGAAGCGAAUCCACUUUUAGAAGCAUUUGGAAAUGCGAAGACUGUUCGCAACAAUAAUAGCAGUCGAUUUGGAAAAUUUGUAGAAAUUCAUUUCAAUGAAAAGAGCUCAGUUGUUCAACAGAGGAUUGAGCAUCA | 0.279 ratio |
| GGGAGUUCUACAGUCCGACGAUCAUAGAUGAAAUUGAUGUAGAUCAGGAAGGAAUUGCUGAAAUGAUCCUGGAUGAAAAUGCUAUUGCUCAGGUCCCACGCCCUGGCACAUCUUUGAAGCUCCCUGGCACUAAUCAGACAGGACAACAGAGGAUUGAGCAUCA | 0.562 ratio |
| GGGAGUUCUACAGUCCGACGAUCCAGCCUCAGAGCCCAGACUUCCUGGAUAUCACCAACCCUAAAGCGGUAUUAGAAAAUGCAUUGAGAAACUUCGCCUGUCUGACGACUGGAGAUGUGAUUGCUAUCAACUAUAAUGAAAAGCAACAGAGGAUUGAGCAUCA | 0.568 ratio |
| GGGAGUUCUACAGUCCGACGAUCUCAUUUUUCUCUUUUCUGAUCGUCAGGUAGGAAAAGCCUAAAGAUUAGGUUGUAAGAAAAACAGAAGCCAUGUUUCGAAGACCUGUGUUACAGGUAUUUCGUCAGUUUGUAAGACAUGAGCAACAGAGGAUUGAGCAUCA | 1.41 ratio |
| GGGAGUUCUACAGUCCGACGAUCCUCAUGGCUGCAGAAACAGGAAGUGGAAAAACUGGUGCAUUUAGUAUUCCCGUUAUCCAGAUAGUGUAUGAAACUCUGAAAGACCAACAGGAAGGAAAAAAAGGAAAAACAACAAUUAAACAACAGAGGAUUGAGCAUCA | 2 ratio |
| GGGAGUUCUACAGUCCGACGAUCCGGAGCCCCUCCCUCUCACAGGCCCAAGAUAUAACCCACCAGUGCCUUUUGUCUUCCCGUUAGCUUUGUCAAUCACGCCUGUCCUCUCACGCCCACACCAAGUGCCCAAAGUGGGGAGGGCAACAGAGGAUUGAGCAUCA | 8.69 ratio |
| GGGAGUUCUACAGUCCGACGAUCCUGUGUGUGCUGAAUAAAUGGCUUGUAAAGAAGUUUUUCCAAGCUGUAACCCAUGCUGUUAUUAUAGUUGCUGCAAAAUGUCUCUUAUGAUAUUGAUGUUUGUUUACAACUGAAGGUCUCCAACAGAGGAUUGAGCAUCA | 0.116 ratio |
| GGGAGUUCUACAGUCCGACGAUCUCUGGUCACACUCGUGUGUAUGGUGUUUGCUUUGUGGACACUUCACUGGGCAAGUUUUUCAUCGGCCAGUUUUCGGAUGACCGCCACUGUUCGAGAUUUAGGACGCUAGUGGCACACUAUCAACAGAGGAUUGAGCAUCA | 0.193 ratio |

Study 4
Target: Sal-like protein 4, full length isoform A (SALL4, Homo sapiens, UniProt Q9UJQ4, residues 1-1053)
Sequence of UniProt Q9UJQ4 (whole entry, looked up): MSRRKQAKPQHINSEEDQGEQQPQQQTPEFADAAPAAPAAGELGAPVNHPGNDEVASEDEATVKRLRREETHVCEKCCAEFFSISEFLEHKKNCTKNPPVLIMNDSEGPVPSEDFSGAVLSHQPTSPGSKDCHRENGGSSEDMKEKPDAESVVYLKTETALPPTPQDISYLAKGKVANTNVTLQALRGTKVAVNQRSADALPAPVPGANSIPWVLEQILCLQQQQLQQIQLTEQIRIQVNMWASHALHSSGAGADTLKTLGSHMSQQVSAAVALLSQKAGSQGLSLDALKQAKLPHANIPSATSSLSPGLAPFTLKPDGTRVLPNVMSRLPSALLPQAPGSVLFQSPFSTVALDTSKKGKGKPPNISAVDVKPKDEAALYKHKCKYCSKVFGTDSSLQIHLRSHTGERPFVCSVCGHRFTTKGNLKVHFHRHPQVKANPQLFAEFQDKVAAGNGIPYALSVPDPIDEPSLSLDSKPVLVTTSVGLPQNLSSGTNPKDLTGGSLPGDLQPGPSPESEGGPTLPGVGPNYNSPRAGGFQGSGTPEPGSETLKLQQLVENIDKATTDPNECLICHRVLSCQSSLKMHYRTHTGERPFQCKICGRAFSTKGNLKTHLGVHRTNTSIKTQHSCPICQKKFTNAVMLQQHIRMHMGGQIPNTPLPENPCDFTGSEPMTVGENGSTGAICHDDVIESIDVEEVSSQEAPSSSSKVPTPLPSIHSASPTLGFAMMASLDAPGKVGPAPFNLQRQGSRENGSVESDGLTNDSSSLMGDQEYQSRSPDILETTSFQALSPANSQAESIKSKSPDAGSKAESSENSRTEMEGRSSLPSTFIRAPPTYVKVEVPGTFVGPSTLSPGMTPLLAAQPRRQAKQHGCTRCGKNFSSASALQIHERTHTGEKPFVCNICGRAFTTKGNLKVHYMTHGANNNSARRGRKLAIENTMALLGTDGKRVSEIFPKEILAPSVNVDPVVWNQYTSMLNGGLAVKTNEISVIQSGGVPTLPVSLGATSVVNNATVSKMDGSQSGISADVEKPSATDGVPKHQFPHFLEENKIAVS
Technique: universal PBM
Form: double-stranded DNA, one strand shown
Medium: in vitro
Tested at: 600 nM
Setting: 8-mer, flanks averaged, mean of replicates
Reading: higher = stronger binding
| Oligonucleotide | E-score |
| --- | --- |
| CCTATCCG | -0.246 |
| CGAGTCTC | -0.252 |
| CGATACTC | -0.00161 |
| AAGAAGTA | 0.154 |
| AAGTACTT | 0.154 |
| GTGGGTCA | -0.149 |
| AACACAAA | 0.178 |
| CTTATCAA | 0.291 |
| CTGATTAA | 0.161 |
| AATATCTG | 0.259 |
| AATTTCCG | 0.068 |
| ATACGGGA | -0.059 |
| GACGTTCC | -0.12 |

Study 5
Target: Centromere-binding protein 1, full length, N-terminal tag (CBF1, Saccharomyces cerevisiae, UniProt P17106, residues 1-351)
Sequence of UniProt P17106 (whole entry, looked up): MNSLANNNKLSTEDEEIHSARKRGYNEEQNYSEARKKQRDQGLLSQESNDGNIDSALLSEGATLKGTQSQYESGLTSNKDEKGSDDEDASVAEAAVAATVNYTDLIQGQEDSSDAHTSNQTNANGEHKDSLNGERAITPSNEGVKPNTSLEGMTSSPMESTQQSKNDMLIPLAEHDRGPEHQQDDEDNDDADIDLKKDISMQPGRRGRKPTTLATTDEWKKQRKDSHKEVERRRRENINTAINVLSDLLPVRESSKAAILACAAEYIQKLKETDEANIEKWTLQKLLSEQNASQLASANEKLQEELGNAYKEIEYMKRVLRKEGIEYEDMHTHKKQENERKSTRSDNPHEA
Technique: protein-binding microarray
Form: double-stranded DNA, one strand shown
Medium: in vitro
Tested at: 0.8 µM
Setting: whole 60-bp probe, no competitor
Reading: higher = stronger binding
| Oligonucleotide | fluorescence intensity [a.u.] |
| --- | --- |
| CTAAAATGATATGATCAGTTGAGAAAAAGCTGGTTCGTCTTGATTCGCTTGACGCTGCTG | 572 |
| CTAATGCGGTGGTATCACATGAAGAGTAAATAATTCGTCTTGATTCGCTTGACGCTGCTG | 1110 |
| GAAAAAAGTAGTAGTCACGTAGCTTAATTGTATTAGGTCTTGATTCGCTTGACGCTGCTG | 688 |
| GAAGCGGAGTTATCACACGTAATGGTACTGAGTTAGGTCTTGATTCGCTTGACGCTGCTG | 529 |
| TGTACGAAGCTATATCTGATGACTATAGTAGTTAGGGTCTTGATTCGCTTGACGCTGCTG | 535 |
| GAATTTTTTTTTGAAAACATGATGATATACTAATAGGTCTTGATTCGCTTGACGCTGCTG | 587 |
| GAATTCTAACTAAGCATCAGAACATAATACAATTAGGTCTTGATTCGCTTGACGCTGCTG | 528 |
| CTAAAAAAAAGAATACGCATGACAAATTTTGAATTCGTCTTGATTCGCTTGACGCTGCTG | 671 |
| CTACGTTATTTTATTCAGTTGATCATTTCTTGTTTCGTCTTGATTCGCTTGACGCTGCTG | 491 |

Study 6
Target: ABI1, truncated, D143A, DHFR fusion (Arabidopsis thaliana)
Technique: DHFR PCA, deep sequencing
Medium: yeast
Setting: methotrexate growth selection, single substitutions
Together with: (+)-ABA 4.8 µM
Baseline: wild-type fitted maximum
Reading: higher = stronger binding
Starting sequence: PYL1, truncated, DHFR fusion (Arabidopsis thaliana); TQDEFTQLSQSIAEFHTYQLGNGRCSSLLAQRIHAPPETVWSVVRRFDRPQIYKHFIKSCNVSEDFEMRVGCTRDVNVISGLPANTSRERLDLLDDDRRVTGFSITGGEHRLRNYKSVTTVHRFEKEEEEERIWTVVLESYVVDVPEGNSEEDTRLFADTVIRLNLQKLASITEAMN
| Variant | relative binding score |
| --- | --- |
| M176P | 63.1% |
| V62N | -14.6% |
| L138S | 8.35% |
| Q19S | 74.2% |
| R155A | 11.7% |
| R74Q | -14.1% |
| K54N | -2.81% |
| D92R | 3.45% |
| S63Q | 65.2% |
| E129Y | 64.4% |
| K54H | -1.03% |
| I33Y | 0.311% |
| N85S | 85.1% |

A few entries again (study 5):
| Oligonucleotide | fluorescence intensity [a.u.] |
| --- | --- |
| CTACGTTATTTTATTCAGTTGATCATTTCTTGTTTCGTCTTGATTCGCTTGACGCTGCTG | 491 |
| CTAAAAAAAAGAATACGCATGACAAATTTTGAATTCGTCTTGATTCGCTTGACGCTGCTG | 671 |
| GAATTTTTTTTTGAAAACATGATGATATACTAATAGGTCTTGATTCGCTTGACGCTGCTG | 587 |
| CTAAAATGATATGATCAGTTGAGAAAAAGCTGGTTCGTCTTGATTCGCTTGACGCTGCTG | 572 |
| GAAGCGGAGTTATCACACGTAATGGTACTGAGTTAGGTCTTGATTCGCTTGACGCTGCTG | 529 |
| GAATTCTAACTAAGCATCAGAACATAATACAATTAGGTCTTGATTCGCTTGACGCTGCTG | 528 |
| GAAAAAAGTAGTAGTCACGTAGCTTAATTGTATTAGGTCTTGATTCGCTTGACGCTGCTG | 688 |
| TGTACGAAGCTATATCTGATGACTATAGTAGTTAGGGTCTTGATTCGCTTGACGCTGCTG | 535 |
| CTAATGCGGTGGTATCACATGAAGAGTAAATAATTCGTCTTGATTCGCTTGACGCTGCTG | 1110 |
